Measured values from different studies.
Each numbered part is a random draw from the data of one study; scales do not carry over between parts.
UniProt P11388, sequence (whole entry, looked up): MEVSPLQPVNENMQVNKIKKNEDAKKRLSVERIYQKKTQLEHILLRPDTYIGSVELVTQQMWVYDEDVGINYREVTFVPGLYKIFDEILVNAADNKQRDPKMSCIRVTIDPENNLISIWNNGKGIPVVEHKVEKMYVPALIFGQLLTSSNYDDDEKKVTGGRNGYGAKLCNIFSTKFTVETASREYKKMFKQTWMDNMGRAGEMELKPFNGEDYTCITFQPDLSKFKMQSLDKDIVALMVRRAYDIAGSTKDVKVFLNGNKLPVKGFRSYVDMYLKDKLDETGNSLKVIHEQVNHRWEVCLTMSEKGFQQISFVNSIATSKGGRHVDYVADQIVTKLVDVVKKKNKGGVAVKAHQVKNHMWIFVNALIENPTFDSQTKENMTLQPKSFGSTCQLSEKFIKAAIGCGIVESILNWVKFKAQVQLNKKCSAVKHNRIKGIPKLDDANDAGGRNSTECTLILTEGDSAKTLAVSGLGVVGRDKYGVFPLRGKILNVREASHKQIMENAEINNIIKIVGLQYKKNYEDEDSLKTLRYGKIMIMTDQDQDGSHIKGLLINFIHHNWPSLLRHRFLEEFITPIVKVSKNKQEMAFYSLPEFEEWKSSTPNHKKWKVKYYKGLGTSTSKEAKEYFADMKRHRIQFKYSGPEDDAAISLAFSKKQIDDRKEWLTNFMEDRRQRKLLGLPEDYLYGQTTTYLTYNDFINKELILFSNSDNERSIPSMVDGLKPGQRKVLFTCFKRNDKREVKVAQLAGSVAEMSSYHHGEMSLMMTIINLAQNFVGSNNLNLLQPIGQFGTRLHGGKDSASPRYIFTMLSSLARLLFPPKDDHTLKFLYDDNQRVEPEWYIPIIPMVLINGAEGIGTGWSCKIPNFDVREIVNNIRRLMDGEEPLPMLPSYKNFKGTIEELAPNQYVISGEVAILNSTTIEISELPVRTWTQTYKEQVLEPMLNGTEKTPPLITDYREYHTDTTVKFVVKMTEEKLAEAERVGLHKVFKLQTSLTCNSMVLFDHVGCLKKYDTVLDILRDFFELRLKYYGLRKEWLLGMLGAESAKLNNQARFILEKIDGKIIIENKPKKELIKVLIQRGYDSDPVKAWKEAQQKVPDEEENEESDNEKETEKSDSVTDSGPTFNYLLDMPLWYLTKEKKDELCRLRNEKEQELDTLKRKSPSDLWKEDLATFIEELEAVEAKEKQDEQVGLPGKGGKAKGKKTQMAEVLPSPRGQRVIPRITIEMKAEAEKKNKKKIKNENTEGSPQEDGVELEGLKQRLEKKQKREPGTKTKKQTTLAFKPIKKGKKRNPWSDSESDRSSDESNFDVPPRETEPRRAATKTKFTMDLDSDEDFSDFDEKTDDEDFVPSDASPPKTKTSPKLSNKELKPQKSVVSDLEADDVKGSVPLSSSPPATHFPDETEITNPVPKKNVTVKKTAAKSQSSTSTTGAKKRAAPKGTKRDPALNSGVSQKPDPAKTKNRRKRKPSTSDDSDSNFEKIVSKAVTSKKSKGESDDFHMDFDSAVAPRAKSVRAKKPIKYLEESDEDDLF

Series 1
Target: Replicase polyprotein 1ab, nsp14 (rep, Severe acute respiratory syndrome coronavirus 2, UniProt P0DTD1)
Action: inhibitor
The IC50 of `Cc1c(S(=O)(=O)N2CCn3nccc3C2)cc(C(=O)NCc2cccc3cnn(C)c23)n1C` is reported as 2.5 nM.
`Cc1c(S(=O)(=O)N2CCn3nccc3C2)cc(C(=O)NCc2cccnc2N2CCCC2)n1C` gave an IC50 of 5 nM.
`Cc1c(S(=O)(=O)N2CCC(C)CC2)cc(C(=O)NCc2cccnc2N2CCCCC2)n1C` has an IC50 of 370 nM.
`Cc1c(CN2Cc3ccccc3C2)cc(C(=O)NCc2cccnc2N2CCCC2)n1C` has an IC50 of over 6250 nM.

Other studies, line by line
`Fc1ccccc1Cc1nc(-c2nc(C(F)(F)F)n[nH]2)cn2ccnc12` — result for “subjects with irregular menstruation”: 7.7% (healthy human subjects, both sexes; oral, 10 mg, fed).
With `COc1cc([C@@H]2c3cc4c(cc3[C@@H](O[C@@H]3O[C@@H]5CO[C@@H](C)O[C@H]5[C@H](O)[C@H]3O)[C@H]3COC(=O)[C@H]23)OCO4)cc(OC)c1O` the inhibition was 0% (DNA topoisomerase 2-alpha (TOP2A, Homo sapiens, UniProt P11388); DNA decatenation, inhibitor, gel-based decatenation; 31.5 µM).
With `CC1COc2ccccc2N1C(=O)C(Cl)Cl` (centres unmarked) the intrinsic clearance was 800 µL/min/mg (carboxylesterase; substrate depletion; rhesus monkey, female, liver microsomes; 5 µM, pH 7.4, without NADPH).
`COC(=O)Nc1c(N)nc(-c2nn(Cc3ccccc3F)c3ncc(F)cc23)nc1N` — result for “AUC(0-24) at steady state”: 6430 ng·h/mL (healthy male humans, plasma; oral, 10 mg once daily, phase I DDI study, without sildenafil).

Some of these lines once more (other studies, line by line):
`COC(=O)Nc1c(N)nc(-c2nn(Cc3ccccc3F)c3ncc(F)cc23)nc1N` — result for “AUC(0-24) at steady state”: 6430 ng·h/mL (healthy male humans, plasma; oral, 10 mg once daily, phase I DDI study, without sildenafil).
